Assay results pooled from the literature.
Parts stem from different laboratories: compare values within a part only. Positions count from the first letter of the parent shown.

Sample 1
Target: CCND1, cyclin fold, Cln2 fusion (human)
Method: yeast growth competition, sequencing
Matrix: yeast
Setting: weak parent motif
Baseline: not given
Direction: higher = stronger binding
Endpoint: normalised enrichment score
Starting sequence: BRCA2 docking peptide (human); PSIKRNLLNEFDR
Change = PSIKRNLLNHFDR [E10H]; result = 0.324
Change = PSIKRHLLNEFDR [N6H]; result = 0.0207
Change = PSIKRNLLNEMDR [F11M]; result = -0.105
Change = PSIRRNLLNEFDR [K4R]; result = 0.113
Change = PSPKRNLLNEFDR [I3P]; result = 0.994
Change = PSIKRGLLNEFDR [N6G]; result = 0.0676
Change = PSIKRNLLNENDR [F11N]; result = -1
Change = PSIKRNLLDEFDR [N9D]; result = 1.31
Change = PSIKRSLLNEFDR [N6S]; result = 0.193
Change = PSIKRNRLNEFDR [L7R]; result = -0.0392
Change = PSTKRNLLNEFDR [I3T]; result = 0.467
Change = PSIKFNLLNEFDR [R5F]; result = -0.256
Change = PSIMRNLLNEFDR [K4M]; result = 0.461
Change = PSIKRNLLNEFCR [D12C]; result = 0.307
Change = PSIKRNLLNEFGR [D12G]; result = 0.308
Change = ISIKRNLLNEFDR [P1I]; result = 0.274
Change = PSIKRNQLNEFDR [L7Q]; result = 0.569
Change = PSIKRNLLNEQDR [F11Q]; result = -0.008

Sample 2
Target: ABI1, truncated, D143A, DHFR fusion (Arabidopsis thaliana)
Method: DHFR PCA, deep sequencing
Matrix: yeast
Setting: methotrexate growth selection, single substitutions
With: (+)-ABA 0.0091 µM
Baseline: wild-type fitted maximum
Direction: higher = stronger binding
Endpoint: relative binding score
Starting sequence: PYL1, truncated, DHFR fusion (Arabidopsis thaliana); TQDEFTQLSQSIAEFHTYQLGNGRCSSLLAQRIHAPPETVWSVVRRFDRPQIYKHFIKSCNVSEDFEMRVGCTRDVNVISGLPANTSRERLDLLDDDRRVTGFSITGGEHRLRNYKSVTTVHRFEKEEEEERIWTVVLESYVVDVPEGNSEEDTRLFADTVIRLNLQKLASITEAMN; partner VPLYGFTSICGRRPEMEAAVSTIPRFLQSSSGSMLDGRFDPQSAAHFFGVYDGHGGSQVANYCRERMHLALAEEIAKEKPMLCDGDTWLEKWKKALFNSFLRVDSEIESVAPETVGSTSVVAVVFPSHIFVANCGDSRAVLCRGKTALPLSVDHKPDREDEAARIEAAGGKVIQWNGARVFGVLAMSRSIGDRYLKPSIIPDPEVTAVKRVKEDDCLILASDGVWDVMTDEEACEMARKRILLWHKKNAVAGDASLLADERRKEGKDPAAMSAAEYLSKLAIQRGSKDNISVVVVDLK
Change = S117W; result = -1.43%
Change = T119P; result = -7.56%
Change = L164N; result = -0.804%
Change = D153F; result = -3.66%
Change = L94G; result = -4.36%
Change = F157P; result = 0.836%
Change = F124H; result = -7.3%
Change = S26D; result = -0.874%
Change = R32Y; result = 17.9%
Change = K116N; result = 4.74%
Change = N114P; result = -1.73%
Change = D75S; result = 16.5%

Sample 3
Target: RNA binding protein fox-1 homolog 2, RRM domain, GST-SBP tag (RBFOX2, Homo sapiens, UniProt O43251-10, residues 100-194)
Method: RNA Bind-n-Seq
Molecule type: RNA
Matrix: in vitro
Concentration: 365 nM
Setting: natural RNA segment, single round, ends assumed
Baseline: no-protein control
Direction: higher = stronger binding
Endpoint: RBNS enrichment (R)
Residues (chain): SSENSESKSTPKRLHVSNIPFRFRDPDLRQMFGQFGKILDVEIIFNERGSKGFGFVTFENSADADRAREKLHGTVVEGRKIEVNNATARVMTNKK
Strand = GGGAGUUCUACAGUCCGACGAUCUGGGAGUGCAUUGAGAGAUGAUGUCCAUCUGAUAUAUUCCUGUGAAAUAAACUGCCAGCAAACUUUCUAACUUGUAUUUUAACUGUUAAAGAAGAGAUUAAAAACUUCGGUGGAAUUCUCGGGUGCCAA; result = 0.52
Strand = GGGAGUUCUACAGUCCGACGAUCUGAUGACUUGCACUUUUAAAGUGGUUUUAUAACACUAACCCGUCCUUGCUAAAGAUUGAAGUAGGUUCUCUUAAAAGGUCUAUUGAUGGACAUGUCUGAGCAGAGAAACCUGGAAUUCUCGGGUGCCAA; result = 0.523
Strand = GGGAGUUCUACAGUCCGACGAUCCACCCACUGUUCCUGAGGACUCCUGCUGGGAAGUCCCAAGGGAUAGUUCUAGCCCUUCUGCCUGUGUAGACAGAAGCUAAACCACCAGUCUCUCUCGGAGGAAGCUGAGAUGGAAUUCUCGGGUGCCAA; result = 0.261
Strand = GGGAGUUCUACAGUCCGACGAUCCAAAGUGACUGUUUGGCUUAUAAACACAUUGAAUGCGCUUUAUUGCCCAUGGGAUAUGUGGUGUAUAUCCUUCCAAAAAAUUAAAACGAAAAUAAAGUAGCUGCGAUUGGUGGAAUUCUCGGGUGCCAA; result = 0.65
Strand = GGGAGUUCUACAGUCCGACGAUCCUCUGCAGUCAGUCUGUUUUCAGAGGCACCCCAGCGAGCCCAGUGCAAGCCCGUAACCCUCCAGAGCUCCUUCACACUGCGCUCUCCAAACCACCCCAUCCUCACAGCGAUGGAAUUCUCGGGUGCCAA; result = 0.594
Strand = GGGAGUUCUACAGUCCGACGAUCCAAGCUGGAGUGCAGUGGCGCGAUCUCGGCUCACUGCAACCUCCGCCUCCUGGGUUCAAGCAGUUCUCUUGCCUCAGCCUCCCAAGUAGCUGGGAUGACAGGCGCACACCUGGAAUUCUCGGGUGCCAA; result = 0.19
Strand = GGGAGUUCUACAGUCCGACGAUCGAGGGUGCUCUGGGCUGGAGGGAGCAGGGACACUCUCAGCCAAAUGGAGCAGUGGGGAGACACCAGGGCUGCAUUAUUUGAAUUAUUUUGCAGCCACAUGGGACUUUUCUUGGAAUUCUCGGGUGCCAA; result = 0.601
Strand = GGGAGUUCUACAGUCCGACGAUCUGCCUCUGUAGAGAGCAGCAUUCCCAGGGACCUUGGAAACAGUUGGCACUGUAAGGUGCUUGCUCCCCAAGACACAUCCUAAAAGGUGUUGUAAUGGUGAAAACGUCUUCUGGAAUUCUCGGGUGCCAA; result = 0.307
Strand = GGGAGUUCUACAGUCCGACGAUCUAAGAAAAAUUCUUAUUUCUUUUUUUCACAGUGAACAUAAUCCUAAAUCCUUGGAUAUUUUUAGAAGUCUGUAACUUUACACAAAUAAUGAAAUAAUUUUUAAUUCAAAGUGGAAUUCUCGGGUGCCAA; result = 0.617
Strand = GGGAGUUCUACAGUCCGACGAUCUUGACCAAUUGUCUACACAGCGACACAGAGUGUUGUGUAUGAAACGGAGUAACUGGCUUAAGGGGUUAAUGUGAGGCCUUACACAGUUGACGCAUAUACAUGAUUCUCAUUGGAAUUCUCGGGUGCCAA; result = 0.708
Strand = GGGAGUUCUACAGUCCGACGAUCAAGAUGUAAUUCACAAAUAGUUUAGCUCCCUAGCGCUCAGUUGUAGAAUAGAAAAUAGAACAUUAUUCAAGUUAAUUGAAAGGUGAGGUUUUUAUACCCCCACUAAUGCUUGGAAUUCUCGGGUGCCAA; result = 0.627
Strand = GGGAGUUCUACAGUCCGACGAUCUGUGGGGGAGGAGGAGAGGUCUCCAUGUGACACAUGGGCUCAGGGCUGCCAGAAUCAGCGGAUGCUGGAUGGGCCUGCAGAAACAACACUCACCACACACACUUCCUUCAUGGAAUUCUCGGGUGCCAA; result = 0.369

Sample 4
Target: TAR DNA-binding protein 43, full length, His tag (TARDBP, Homo sapiens, UniProt Q13148, residues 1-414)
Method: RNA Bind-n-Seq
Molecule type: RNA
Matrix: in vitro
Concentration: 20 nM
Setting: 6-mer, flanks averaged, single round
With: 150 mM KCl
Baseline: input library
Direction: higher = stronger binding
Endpoint: 6-mer enrichment (R)
Strand = AUGAGC; result = 0.869
Strand = AAAAGU; result = 0.639
Strand = GCAAAG; result = 1.15
Strand = CACGCU; result = 0.648
Strand = ACAGAA; result = 0.718
Strand = GGAACU; result = 0.982
Strand = UUUACG; result = 0.634
Strand = UUAGGU; result = 0.743
Strand = GAAUCU; result = 0.625
Strand = GGCGCC; result = 1.46
Strand = GCACUG; result = 0.938
Strand = GCACUA; result = 0.69
Strand = GAUACU; result = 0.619
Strand = GUGAAC; result = 0.897
Strand = CUAUAA; result = 0.681
Strand = CUCGCU; result = 0.562
Strand = UCCGCU; result = 0.588
Strand = GGUCUC; result = 0.837

Sample 5
Target: RING finger protein unkempt homolog, zinc fingers 1-6, SBP tag (UNK, Homo sapiens, UniProt Q9C0B0, residues 30-357)
UniProt Q9C0B0, sequence (30-357, looked up): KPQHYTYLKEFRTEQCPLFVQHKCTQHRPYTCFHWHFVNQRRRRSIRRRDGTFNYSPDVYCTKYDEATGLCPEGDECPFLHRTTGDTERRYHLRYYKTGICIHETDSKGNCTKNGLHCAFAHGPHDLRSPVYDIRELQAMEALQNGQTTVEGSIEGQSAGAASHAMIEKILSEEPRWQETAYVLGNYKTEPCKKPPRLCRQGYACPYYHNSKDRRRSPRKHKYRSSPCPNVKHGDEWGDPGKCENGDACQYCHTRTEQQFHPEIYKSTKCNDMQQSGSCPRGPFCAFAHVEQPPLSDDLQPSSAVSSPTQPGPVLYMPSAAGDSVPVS
Method: RNA Bind-n-Seq
Molecule type: RNA
Matrix: in vitro
Concentration: 100 nM
Setting: RNA with constant flanks, vertebrate orthologous sites, ends assumed
Baseline: input RNA pool
Direction: higher = stronger binding
Endpoint: bound/input enrichment
Strand = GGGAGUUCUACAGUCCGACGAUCUAAAGAAGAGAUUCCUGUGGUUUCUAAUAUUUAAUUUGCUCUUUUUAAGAUAUUUCAAUCUGCAUUUCUUUAUAGAAAUGGUAUGCUAGCAUUUCUCUCCUAAGGAGGACUAGUCCUCAUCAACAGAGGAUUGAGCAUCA; result = 0.542 ratio
Strand = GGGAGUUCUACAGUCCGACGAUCUUCAGGCACAACUGACUGGUUCACAGCAUCCCUUACACAAUUAUCUAUCAAGUGCAAGUAUUGGUAAUUUUCAGGAAACAUCCAGACAGUCAUCUUUAUCCUGUAGCUCAAUUCGAGAUUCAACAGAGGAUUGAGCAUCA; result = 0.694 ratio
Strand = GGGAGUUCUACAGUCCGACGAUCUCCCAGCACUCUGAUAAAAAGUGUGGACUGGUUGCUUGUAUUUUCCUUAUUCUUUUUAAUCAGCUUUAUUAUGUACGCUACCAUUCGAACUGAGAGUAUUCGGUGGCUGAUUCCGGGACACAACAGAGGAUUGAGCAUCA; result = 0.455 ratio
Strand = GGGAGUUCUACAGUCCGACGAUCCAACUUGUUCUAGAUGGUGAUCCUUCAAAGUUGGGUCAGGCAUUAAUUAGUGCUAGGUACUCACAAUGUUCAUUUCUCUGUUGCCGUUGAUCAGAGAGACAGACAUAAAAACAUAAGAAACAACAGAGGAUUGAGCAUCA; result = 0.401 ratio
Strand = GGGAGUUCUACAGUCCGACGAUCGUCUAGUGUUUAAGCCAGCACUUGUAGAACGCUAUUUAUUUGUGUCUCUAAGUUUGUACAUAAUCUUAACCUCAUAUUGUUGCUGAGUUUCAUUUUGAGGAAGGCAAAUUUGAGUUUUAUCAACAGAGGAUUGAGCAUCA; result = 0.726 ratio
Strand = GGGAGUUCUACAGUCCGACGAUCAAAUUUAUUUUAUGCCCUGGACUCCCUACCGCACCGAUACCUUAAUAGAAUAUGCUUCUUUAGAAGAUUUUCAAAACAGCCGCCAGACAACAACAUACAAACUUCCAAACCGAGUGGACGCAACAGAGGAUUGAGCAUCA; result = 1.39 ratio
Strand = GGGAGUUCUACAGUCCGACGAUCUCCCCAUUACCCCUAAAGUAGAACAUUUUUUAAAUUGUGUUGCCACCACUUCUAAAAAUUUAGCAAUAUUAGAAUAGGAUACUAGUGAAGUAAGAAAUUUUGCUUGUUGUUUUGCAAACCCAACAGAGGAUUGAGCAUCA; result = 4 ratio
Strand = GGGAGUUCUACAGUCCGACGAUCUGACCAUACAUAUACAAUGUGUAUCAAAUGCUGGUUGUAAAAUUAAACCAUCAUCUAGAAUAGAGUUAAUUUGUUAUAAUCAAGCUACAAAUAGGUUGUCUUAAACCAGAGAUGAUGCACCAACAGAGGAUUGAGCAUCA; result = 0.589 ratio
Strand = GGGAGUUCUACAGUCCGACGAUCUUCUCCUGGGUUAGAGCGGGGUCUCCCUCUACAUCUCCCGUGAGGGGAAAAAGCCCCAAAUAGUCCUUACACAUCUGAUUAGAGUGUUCUGUCUCUGCCAUCUACUUGUACAUAUGCGUCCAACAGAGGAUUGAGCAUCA; result = 0.788 ratio
Strand = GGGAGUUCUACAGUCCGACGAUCCCCAGUUUGUAUGUACAUUAUUCACAUUCCUCUCUGUUUUGUUGGGAAAAGAGACAUUUUAACCUUUUUUAAAAGGUUAUUGAUUUAAUUUCAUGUUAUUUGGUUGCAUGAAGUUGCCCUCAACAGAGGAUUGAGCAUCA; result = 0.275 ratio
Strand = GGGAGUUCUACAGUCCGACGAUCAUGUAGUUUGUUUUUAAUUUCAAGCAGAAUCUUAUUGUACUUGAAUGUGCCCUGUUUUGUUAGCACACCUAGACUUGCUGUAACUGUACUCAUGUCCCAGUAUGUACGUUCUUUCUAUGACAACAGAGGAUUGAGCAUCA; result = 1.03 ratio

For quick reference, copied from above (sample 1):
Change = PSIRRNLLNEFDR [K4R]; result = 0.113
Change = PSIKRNLLNEFGR [D12G]; result = 0.308
Change = PSIKFNLLNEFDR [R5F]; result = -0.256
Change = PSIMRNLLNEFDR [K4M]; result = 0.461
Change = PSIKRSLLNEFDR [N6S]; result = 0.193
Change = ISIKRNLLNEFDR [P1I]; result = 0.274
Change = PSIKRNLLNEMDR [F11M]; result = -0.105
Change = PSIKRNLLDEFDR [N9D]; result = 1.31
Change = PSPKRNLLNEFDR [I3P]; result = 0.994
Change = PSIKRNLLNENDR [F11N]; result = -1
